Results collected from several papers.
Parts stem from different laboratories: compare values within a part only.

Sample 1
Target: Sal-like protein 4, full length isoform A (SALL4, Homo sapiens, UniProt Q9UJQ4, residues 1-1053)
Sequence of UniProt Q9UJQ4 (whole entry, looked up): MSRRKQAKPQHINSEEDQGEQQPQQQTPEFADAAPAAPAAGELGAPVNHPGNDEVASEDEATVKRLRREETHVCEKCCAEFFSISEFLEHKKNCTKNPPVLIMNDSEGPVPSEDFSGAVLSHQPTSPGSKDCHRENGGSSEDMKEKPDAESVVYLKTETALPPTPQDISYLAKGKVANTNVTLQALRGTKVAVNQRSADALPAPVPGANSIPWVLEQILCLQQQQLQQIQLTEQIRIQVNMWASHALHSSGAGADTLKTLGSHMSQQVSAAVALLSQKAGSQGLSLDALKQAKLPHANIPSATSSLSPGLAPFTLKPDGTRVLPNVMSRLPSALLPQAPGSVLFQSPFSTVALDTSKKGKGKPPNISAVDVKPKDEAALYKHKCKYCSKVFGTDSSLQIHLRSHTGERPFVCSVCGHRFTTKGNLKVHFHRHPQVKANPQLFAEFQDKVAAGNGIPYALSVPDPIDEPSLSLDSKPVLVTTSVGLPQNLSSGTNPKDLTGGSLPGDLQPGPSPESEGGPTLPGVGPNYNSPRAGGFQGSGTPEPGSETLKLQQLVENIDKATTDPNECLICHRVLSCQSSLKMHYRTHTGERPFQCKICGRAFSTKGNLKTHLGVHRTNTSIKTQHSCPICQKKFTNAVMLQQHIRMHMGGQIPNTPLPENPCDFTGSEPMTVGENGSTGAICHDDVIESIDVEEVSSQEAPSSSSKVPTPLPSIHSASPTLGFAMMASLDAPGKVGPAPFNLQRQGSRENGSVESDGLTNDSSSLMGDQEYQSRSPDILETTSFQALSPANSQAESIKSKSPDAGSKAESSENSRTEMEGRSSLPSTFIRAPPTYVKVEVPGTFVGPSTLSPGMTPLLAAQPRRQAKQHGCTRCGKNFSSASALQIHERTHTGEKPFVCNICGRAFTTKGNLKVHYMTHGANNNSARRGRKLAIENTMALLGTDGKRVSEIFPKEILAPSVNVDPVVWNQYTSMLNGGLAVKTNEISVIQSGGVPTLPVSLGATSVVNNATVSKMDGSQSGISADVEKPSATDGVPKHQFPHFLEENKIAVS
Method: universal PBM
Form: double-stranded DNA, one strand shown
Matrix: in vitro
Tested at: 600 nM
Setting: 8-mer, flanks averaged, mean of replicates
Reading: higher = stronger binding
Oligonucleotide | E-score
ACCCATGA | -0.0854
CGTGTTAC | -0.0551
ATCCGACA | -0.0879
AGTAACAT | 0.116
CTTTGTCC | 0.00668
GCTGGCTA | -0.233
GACACACA | 0.128
GTGCTCAA | 0.03
ATGCTACC | 0.00686
CATATCGG | 0.167
GCAATGAA | 0.0867
GCATAGGC | 0.0444
CTCCCAGA | -0.137
ACGTGTGA | 0.0517
ATTTGGCA | 0.107
AGTAACAG | 0.246
AGAGGTAA | 0.133
TGGTTGAA | -0.0452
CTTCGTAA | 0.136
ACAGTTAA | 0.167
AGCGCCAG | -0.235

Sample 2
Target: Ras GTPase-activating protein-binding protein 1, full length (G3BP1, Homo sapiens, UniProt Q13283)
Sequence of UniProt Q13283 (whole entry, looked up): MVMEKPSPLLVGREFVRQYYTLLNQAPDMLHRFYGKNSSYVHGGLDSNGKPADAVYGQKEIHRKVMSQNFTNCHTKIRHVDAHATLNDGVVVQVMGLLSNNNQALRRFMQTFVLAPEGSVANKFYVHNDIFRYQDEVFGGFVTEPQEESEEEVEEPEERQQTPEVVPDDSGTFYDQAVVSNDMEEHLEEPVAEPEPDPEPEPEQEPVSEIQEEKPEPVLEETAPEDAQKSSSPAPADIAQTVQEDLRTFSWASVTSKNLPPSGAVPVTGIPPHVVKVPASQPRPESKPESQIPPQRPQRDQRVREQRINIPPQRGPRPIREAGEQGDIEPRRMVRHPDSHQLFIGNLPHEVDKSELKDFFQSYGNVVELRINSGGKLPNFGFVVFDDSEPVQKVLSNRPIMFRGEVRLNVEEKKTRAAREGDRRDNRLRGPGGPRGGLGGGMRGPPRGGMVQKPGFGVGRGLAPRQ
Method: RNA Bind-n-Seq
Form: RNA
Matrix: in vitro
Tested at: 200 nM
Setting: whole 134-nt RNA, ends assumed
Added: 150 mM LiCl
Reference: input library
Reading: higher = stronger binding
All molecules: 7-deaza-guanosine replaces G
Oligonucleotide | log2 enrichment
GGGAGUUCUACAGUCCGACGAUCUCCUGUGCUACACAUCGUAUGUACCGAAUCAAAGUGUGUGUGUGAAAUGUGUGUGUGAAAAAAGUAUUAUGUUACGCCGUUCGGAUCUGCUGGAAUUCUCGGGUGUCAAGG | -1.3
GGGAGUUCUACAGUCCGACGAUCAGUCCUGUGCUACACAUCGUAUGUACCGAAUCGGUUUUGGGUUUUGGGGUUUUGGGGAAAGUAUUAUGUUACGCCGUUCGGAUCUGCACUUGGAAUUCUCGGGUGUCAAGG | -0.157
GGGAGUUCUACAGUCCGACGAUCCUCAAGUCCUGUGCUACACAUCGUAUGUACCGAAUCGGUUGGGUUGGGUUGGGGAAAGUAUUAUGUUACGCCGUUCGGAUCUGCACUUCCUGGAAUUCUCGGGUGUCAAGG | -0.438
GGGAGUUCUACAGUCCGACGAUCAGUCCUGUGCUACACAUCGUAUGUACCGAAUCAAACCCAAACCCCCCCAAAUUUAAAAAAGUAUUAUGUUACGCCGUUCGGAUCUGCACUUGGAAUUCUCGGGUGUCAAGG | 0.976
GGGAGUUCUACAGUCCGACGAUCUGGCCCUGGUGGCAUGCGGGGAGGAAGAUGUGGCCUCAUGGAUCGUGGUGGUCCCGGUGGAAUGUUCAGAGGUGGCCGUGGUGGAGACAGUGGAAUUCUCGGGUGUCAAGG | 0.099
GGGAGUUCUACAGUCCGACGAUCUGGGAGGUGGAUUUUGUUUAUUUUUUUAGCUCACUUCCAGGGGUGGGAAUUUUUUUUUAAUAUGUGUCAUGAAUAAAGUUGUUUUUGAAAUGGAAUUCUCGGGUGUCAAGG | 0.0521
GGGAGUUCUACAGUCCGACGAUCAGUCCUGUGCUACACAUCGUAUGUACCGAAUCGGGGUUUUUGGUUUUUGGUUUUUGGAAAGUAUUAUGUUACGCCGUUCGGAUCUGCACUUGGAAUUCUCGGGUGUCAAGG | -1.15
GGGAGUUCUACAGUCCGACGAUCCAAGUCCUGUGCUACACAUCGUAUGUACCGAAUCGGUGGUUUUUGGAAAAAAAGGAAAGUAUUAUGUUACGCCGUUCGGAUCUGCACUUCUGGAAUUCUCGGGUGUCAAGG | -0.398
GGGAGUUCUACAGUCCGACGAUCCCUGUGCUACACAUCGUAUGUACCGAAUCGGGGUUUUUUGGGGUUUUUUGGGUUUUUUGGGAAAGUAUUAUGUUACGCCGUUCGGAUCUGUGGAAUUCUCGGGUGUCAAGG | 0.682
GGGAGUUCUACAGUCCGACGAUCCACAGACAACACGCACCCACACAGACACAGAGGGAAGGGGUUGGGAUGGGGACAGGGUGCACAGCAGGGCGGUGUAGGACCCCAGCCCCUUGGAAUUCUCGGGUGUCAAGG | 0.719
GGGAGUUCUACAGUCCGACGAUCCACAGACAACACGCACCCACACAGACACAGAGGGAAAGGGUUGGGAUGGGGACAGGGUGCACAGCAGGGCGGGGUAGGACCCCAGCCCCUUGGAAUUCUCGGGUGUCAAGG | -1.11

Sample 3
Target: Histone acetyltransferase KAT6A, winged helix 2, GST fusion (KAT6A, Homo sapiens, UniProt Q92794, residues 85-181)
Method: protein binding microarray
Form: double-stranded DNA, one strand shown
Matrix: in vitro
Tested at: not given
Setting: 8-mer, flanks averaged, mean of 2 arrays, mostly near background
Reference: not given
Reading: higher = stronger binding
Construct (chain): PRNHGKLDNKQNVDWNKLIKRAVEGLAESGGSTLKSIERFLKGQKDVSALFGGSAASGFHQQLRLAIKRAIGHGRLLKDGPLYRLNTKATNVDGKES
Oligonucleotide | E-score
CCATGCCC | -0.0112
CTCCCCCC | 0.108
GCTCAGAA | 0.0391
GCGTAGTA | -0.127
GCTGCGTA | 0.00274
GAAGAGGA | -0.0531
CACAAGCG | -0.00448
CCGTGCCG | 0.0823
TATATGAA | 0.035
AGCCCCAG | 0.0197
ATACTCTG | 0.00873
AAGAAGCT | -0.0307
AATGAATC | -0.0143
GTGTCAAC | -0.0307
ACACAACC | -0.0372
GCCTATAA | -0.171
TACCTGCA | -0.0301
AATACTGC | -0.0101
ATGTATTA | -0.142
ACGACCAT | -0.17
CGAGTGAA | 0.16
CGTAGATC | -0.0275
ACACACTA | 0.0581
GCTTGGAA | 0.0176
AACACTGA | 0.0121

Sample 4
Target: TAR DNA-binding protein 43, full length, His tag (TARDBP, Homo sapiens, UniProt Q13148, residues 1-414)
Method: RNA Bind-n-Seq
Form: RNA
Matrix: in vitro
Tested at: 20 nM
Setting: 6-mer, flanks averaged, single round
Added: 150 mM KCl
Reference: input library
Reading: higher = stronger binding
Oligonucleotide | 6-mer enrichment (R)
AAAUGC | 0.659
GCGGCU | 1.45
ACCAUC | 0.596
AGGUAU | 0.837
GGAUAU | 0.863
AAGGCC | 0.806
AGACCA | 0.691
CGGGCG | 4.27
ACCGUU | 0.582
UUCGAC | 0.578
CUUUUA | 0.641
AGACUA | 0.627
GGAGUA | 1.46
GCCAUA | 0.694
GAUUGC | 0.785
AUCGUU | 0.555
GUUAUU | 0.66
GUGUAC | 0.888
AUAAAA | 0.752
AGCCUA | 0.639
UCCGAU | 0.579
CGACGC | 0.821

Some of these lines once more (sample 2):
Oligonucleotide | log2 enrichment
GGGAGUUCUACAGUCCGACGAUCUCCUGUGCUACACAUCGUAUGUACCGAAUCAAAGUGUGUGUGUGAAAUGUGUGUGUGAAAAAAGUAUUAUGUUACGCCGUUCGGAUCUGCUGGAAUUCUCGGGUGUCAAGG | -1.3
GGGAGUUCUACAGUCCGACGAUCAGUCCUGUGCUACACAUCGUAUGUACCGAAUCGGUUUUGGGUUUUGGGGUUUUGGGGAAAGUAUUAUGUUACGCCGUUCGGAUCUGCACUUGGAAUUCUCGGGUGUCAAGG | -0.157
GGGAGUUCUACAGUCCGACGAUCCUCAAGUCCUGUGCUACACAUCGUAUGUACCGAAUCGGUUGGGUUGGGUUGGGGAAAGUAUUAUGUUACGCCGUUCGGAUCUGCACUUCCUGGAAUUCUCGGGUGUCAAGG | -0.438
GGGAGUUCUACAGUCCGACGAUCAGUCCUGUGCUACACAUCGUAUGUACCGAAUCAAACCCAAACCCCCCCAAAUUUAAAAAAGUAUUAUGUUACGCCGUUCGGAUCUGCACUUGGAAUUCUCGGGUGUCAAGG | 0.976
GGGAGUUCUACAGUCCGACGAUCUGGCCCUGGUGGCAUGCGGGGAGGAAGAUGUGGCCUCAUGGAUCGUGGUGGUCCCGGUGGAAUGUUCAGAGGUGGCCGUGGUGGAGACAGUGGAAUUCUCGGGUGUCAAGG | 0.099
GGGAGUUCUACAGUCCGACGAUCUGGGAGGUGGAUUUUGUUUAUUUUUUUAGCUCACUUCCAGGGGUGGGAAUUUUUUUUUAAUAUGUGUCAUGAAUAAAGUUGUUUUUGAAAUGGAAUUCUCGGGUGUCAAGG | 0.0521
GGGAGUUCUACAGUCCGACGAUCAGUCCUGUGCUACACAUCGUAUGUACCGAAUCGGGGUUUUUGGUUUUUGGUUUUUGGAAAGUAUUAUGUUACGCCGUUCGGAUCUGCACUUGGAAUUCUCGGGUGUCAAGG | -1.15
